Experimental data of several laboratories.
A part holds a random share of what one study measured.

Set 1
Target: Histone acetyltransferase KAT6A, both winged helices, GST fusion (KAT6A, Homo sapiens, UniProt Q92794, residues 1-181)
Method: protein binding microarray
Form: double-stranded DNA, one strand shown
Medium: in vitro
Tested at: not given
Notes: 8-mer, flanks averaged, mean of 2 arrays, mostly near background
Relative to: not given
Reading: higher = stronger binding
Residues (chain): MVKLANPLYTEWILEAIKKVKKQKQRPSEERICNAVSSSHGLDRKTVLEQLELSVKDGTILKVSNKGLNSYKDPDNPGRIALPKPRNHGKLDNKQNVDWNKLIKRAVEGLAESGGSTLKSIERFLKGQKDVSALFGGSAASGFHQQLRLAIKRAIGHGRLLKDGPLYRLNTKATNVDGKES
| Oligonucleotide | E-score |
| --- | --- |
| AATTAGCT | -0.142 |
| AGCGATTC | 0.187 |
| GACCAAGC | 0.053 |
| GTTAACAA | 0.0342 |
| AACAGCGG | 0.121 |
| CTAGCAGA | -0.238 |
| CTGACTTA | -0.179 |
| ACACTTGC | -0.079 |

Set 2
Target: Sal-like protein 4, full length isoform B (SALL4, Homo sapiens, UniProt Q9UJQ4-2, residues 1-616)
Method: universal PBM
Form: double-stranded DNA, one strand shown
Medium: in vitro
Tested at: not given
Notes: 8-mer, flanks averaged, mean of replicates
Reading: higher = stronger binding
Construct (chain): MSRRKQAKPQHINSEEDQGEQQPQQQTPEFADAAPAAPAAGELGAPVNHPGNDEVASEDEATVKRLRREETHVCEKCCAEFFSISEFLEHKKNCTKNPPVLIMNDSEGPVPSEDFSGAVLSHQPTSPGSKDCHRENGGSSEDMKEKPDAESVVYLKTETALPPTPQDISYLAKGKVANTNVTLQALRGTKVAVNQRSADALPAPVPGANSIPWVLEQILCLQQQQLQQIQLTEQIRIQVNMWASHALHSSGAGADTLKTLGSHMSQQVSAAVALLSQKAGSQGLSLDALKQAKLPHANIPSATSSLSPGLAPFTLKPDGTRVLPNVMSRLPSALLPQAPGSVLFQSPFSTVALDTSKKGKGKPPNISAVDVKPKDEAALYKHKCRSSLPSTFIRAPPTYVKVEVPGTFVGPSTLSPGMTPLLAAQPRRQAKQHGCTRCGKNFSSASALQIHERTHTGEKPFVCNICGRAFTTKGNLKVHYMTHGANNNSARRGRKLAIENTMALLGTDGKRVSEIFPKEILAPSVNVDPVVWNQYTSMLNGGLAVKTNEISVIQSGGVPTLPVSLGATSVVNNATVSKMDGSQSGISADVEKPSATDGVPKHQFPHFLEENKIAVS
| Oligonucleotide | E-score |
| --- | --- |
| CCGCTCCC | -0.346 |
| AAGAGTGC | -0.149 |
| AAACGTCA | 0.102 |
| CTCGCGAA | -0.136 |
| AGTCGAAA | -0.0811 |
| ATGCGTTC | 0.0575 |
| CGCCCCAC | -0.29 |
| CCCGGGTA | -0.313 |

Set 3
Target: RING finger protein unkempt homolog, zinc fingers 1-6, GST-SBP tag (UNK, Homo sapiens, UniProt Q9C0B0, residues 30-357)
Method: RNA Bind-n-Seq
Form: RNA
Medium: in vitro
Tested at: not given
Notes: RNA with constant flanks, ends assumed
Relative to: input RNA pool
Reading: higher = stronger binding
All sequences stand within: GGGAGUUCUACAGUCCGACGAUC … CAACAGAGGAUUGAGCAUCA
Target sequence (chain): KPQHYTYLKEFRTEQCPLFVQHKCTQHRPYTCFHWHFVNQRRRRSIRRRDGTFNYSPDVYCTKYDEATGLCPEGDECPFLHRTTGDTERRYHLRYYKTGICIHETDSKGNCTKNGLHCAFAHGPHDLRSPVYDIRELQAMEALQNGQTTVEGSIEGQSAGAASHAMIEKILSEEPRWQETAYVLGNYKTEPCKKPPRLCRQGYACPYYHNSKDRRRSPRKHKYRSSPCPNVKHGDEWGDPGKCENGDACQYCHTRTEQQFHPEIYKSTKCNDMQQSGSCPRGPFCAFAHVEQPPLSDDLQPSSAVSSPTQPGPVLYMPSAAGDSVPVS
| Oligonucleotide | bound/input enrichment |
| --- | --- |
| GAGCGUCUCGCUCGAACCGGGAUCAUAGUGACCACGAGUGAGGCUGUUCUGCUUCAGCUGGCCGCUGAUAAGGACCAUCCAAAAUUCAAGGAAAUUCAGAAUCUAAUUAAGGCGAGUGCU | 0.281 ratio |
| CAACAAAAGAUAAACAAAUUUGCACGGAAUACAAGUAGAAUCACAGAGCUGAAGGAAGAAACCGAAGUAAAAAAGAAACAACUCCAAAACCUAGAAGAUGCUUGUGAUGACAUCAUGCUU | 0.442 ratio |
| AGGCCAUUGAUGCAUCUUUCCGACUGUAUGUUCUGUGUAUAAUGCUGUUCUUGGUGCUAAACCGACUUUCUUUCCUCUGAUAUUCAGGAUAAUUUUUCUCUAUACUUCUGUUCACUUGUU | 0.532 ratio |
| CGUCCUUGUUAAGCACUGCUUUCCAGACCGUGUCUGACUUAGUCAACCUAGAGGAUUUUACCGUUUCACUCUAAUGAAGUCCUGAUUAACACAGAGCAGCGGAGCAGCGGUCCCUCCCCU | 0.313 ratio |
| UUUUGAAAACGAACUUCUCUAGCUACACAGAAGUAACAAAAUAUGUUAGUCAGUUUUGUAUUCCGAAAUGUAUUGGUAGCAGGGAUGUUUUCAUAAUUUUCAGAGAAUAUGCAUUCUUCA | 0.101 ratio |
| UUCUUCACCCGGAACCAUCUGCCUGUACCUAACCUGGAUCCAGACACCUAUCGCUUACACGCCGCCGGAGCACCUGGGGGUCAGUCACUGUCUCUUUCCCUGGAUGACUUGCACAACUUU | 0.141 ratio |
| CCUGUCAUUCACAACGGAAGCCAAGGAACAGGAACAAAUGGUUCGGAAAUCAGUGACCGUGAUUAUCAGGCAGAAUACCCUGAUGAGUAUCAUGGCGAGUACCAGGAUGACUACCCCAGA | 0.0987 ratio |
| AAGAAUCUGAGGACCCGACACCUACAAAUUUGCCGUUAUUCCCACUUCUUGAUGAAGGAACCGCCCGAUGAACAAAGUGUUCUGCAGAGGCCUUUUAUGUGUUUAUGUGGUCCUCAAAGA | 0.148 ratio |
| UCAUUGGGUUACUCCUAUUAUCAAGUAGCUGGAAUUGUGAAGGUUGAGUAGUUAGAUCUUCCGCUUUUAUUCAUUAUUUUUUGUAUUACUCUCCAUGUGUAUAAAUUAUUGAUCAUGUUG | 3.23 ratio |

Single results of other studies
| Molecule | target | assay | test system | setting | how to read | measurement | result |
| --- | --- | --- | --- | --- | --- | --- | --- |
| PhoQ, residues 284 288 289 292 302 303 SNSSNI | PhoP, residues 12 14 15 18 19 HEGLL (Escherichia coli, UniProt P23836) | Sort-seq, measured: YFP reporter | E. coli | PhoQ-PhoP variant library, together with: 10 µM Mg2+ | relative to: high Mg2+ state, higher = stronger signaling | fold induction | 1.01 |

A few entries again (set 1):
| Oligonucleotide | E-score |
| --- | --- |
| GTTAACAA | 0.0342 |
| AACAGCGG | 0.121 |
